# Assay results collected from several papers.
# Parts stem from different laboratories: compare values within a part only. Changes are numbered by the printed parent chain.
# Sequence of UniProt P11229 (whole entry, looked up): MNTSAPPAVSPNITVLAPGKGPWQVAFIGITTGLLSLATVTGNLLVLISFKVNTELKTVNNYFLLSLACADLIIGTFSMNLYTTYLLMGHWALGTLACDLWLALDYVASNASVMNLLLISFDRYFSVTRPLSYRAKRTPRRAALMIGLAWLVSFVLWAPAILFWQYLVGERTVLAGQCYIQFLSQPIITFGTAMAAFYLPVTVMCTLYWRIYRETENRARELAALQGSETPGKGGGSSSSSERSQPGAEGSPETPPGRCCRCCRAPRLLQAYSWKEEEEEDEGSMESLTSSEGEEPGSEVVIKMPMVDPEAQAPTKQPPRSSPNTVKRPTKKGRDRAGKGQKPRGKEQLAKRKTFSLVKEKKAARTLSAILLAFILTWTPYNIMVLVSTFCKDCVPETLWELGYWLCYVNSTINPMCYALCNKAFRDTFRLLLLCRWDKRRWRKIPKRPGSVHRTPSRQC

# Block 1
# Target: HLA class I histocompatibility antigen, A alpha chain, allele A*80:01 (Homo sapiens, UniProt P04439)
# Read-out: peptide-MHC binding
# Molecule type: peptide
# Tested at: concentration not given
Sequence,binding
PELGAFFAI,inactive
TELPLAYER,inactive
LSEEANWAF,inactive

# Block 2
# Target: XBP1, bZIP domain (human)
# Technique: DHFR protein complementation
# Matrix: yeast
# Notes: single substitutions, most at no-binding floor
# Reference: wild-type JUN-FOS pair
# Direction: higher = stronger binding
# Starting sequence: JUN, bZIP domain (human); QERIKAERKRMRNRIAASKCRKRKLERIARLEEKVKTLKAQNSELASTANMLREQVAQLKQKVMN; partner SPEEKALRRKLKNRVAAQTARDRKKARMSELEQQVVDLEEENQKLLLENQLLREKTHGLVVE
Variant,binding fitness [natural log]
R30Y,-0.241
L31C,-1.45
E44T,-1.17
N42W,-1.35
A29S,-0.93
A46C,-1.11
R30L,-0.251
R30E,-0.0629

# Block 3
# Target: CCND2, cyclin fold, Cln2 fusion (human)
# Technique: yeast growth competition, sequencing
# Matrix: yeast
# Notes: strong parent motif
# Reference: not given
# Direction: higher = stronger binding
# Starting sequence: viral docking peptide; YKVKRRLVFGADD; partner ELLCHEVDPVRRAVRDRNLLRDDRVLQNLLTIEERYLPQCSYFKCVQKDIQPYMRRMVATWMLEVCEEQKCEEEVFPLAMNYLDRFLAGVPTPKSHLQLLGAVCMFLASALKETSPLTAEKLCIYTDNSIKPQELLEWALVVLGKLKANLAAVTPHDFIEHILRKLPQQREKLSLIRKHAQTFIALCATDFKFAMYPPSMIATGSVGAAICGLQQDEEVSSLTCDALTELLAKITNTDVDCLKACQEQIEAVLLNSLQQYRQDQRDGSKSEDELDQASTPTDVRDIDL
Variant,normalised enrichment score
R5I,0.067
L7C,-0.166
K2T,2.02
R5A,0.255
R5Y,-0.0686
G10K,1.13
G10A,0.906
K4H,0.518
V8E,1.88
L7D,0.154
K4Y,0.352
L7Q,-0.147
K2R,1.29
L7F,0.103
R5L,-0.0241
R6H,0.629

# Block 4
# Target: RNA binding protein fox-1 homolog 2, RRM domain, GST-SBP tag (RBFOX2, Homo sapiens, UniProt O43251-10, residues 100-194)
# Technique: RNA Bind-n-Seq
# Molecule type: RNA
# Matrix: in vitro
# Tested at: 365 nM
# Notes: natural RNA segment, single round, ends assumed
# Reference: no-protein control
# Direction: higher = stronger binding
# Shared flanks, not repeated: GGGAGUUCUACAGUCCGACGAUC … UGGAAUUCUCGGGUGCCAA
# Construct (chain): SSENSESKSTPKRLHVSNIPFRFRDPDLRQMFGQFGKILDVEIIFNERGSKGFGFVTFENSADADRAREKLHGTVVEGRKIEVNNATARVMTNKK
Strand,RBNS enrichment (R)
UCCUGGGAUCCGGGAGUCCAUCCCGGCCCAGCACCCCCAGCAUCCCCGUGUAUGGCCCCCCUGCACCUCCUUGUCUCAUCCCCGAAGAUCCGUCCCCCUGGCCCCUCAGU,4.19
GAUAGUCCCAAAGCAUGACCACAAAGUAGAGAGCACGUGGUUAGAAACCACUUCAUCAGAAUGUGUGAGUCCUGGGGAUGCAUGGGGCACAGUUGAUGCUGCUUGGGACA,19.3
UAAAUCCGCCAGGUCACGUGCAGACAAAGCUGUGGCUGCGAGAGUUGGCUGGCCUCUUGGACCAGAAGCCAUCUCCAUAUCCUCAUGAGCGAUUCCAUAUCUCCACUCAG,0.266
GGAAGAUACCGAUAAAUAACAUGGUUUAAGUGUCAAUAAAAUUCAUUCGAAGAGAUCAGGCGCGGUGGCUCACGCCUGUAAUCCCAGCAUUUUGGGAGGCUGAGGCAGGU,0.63
CAACAUACUCUUAAUGUUGAUUUUACAAUAUGAAGAGAUUAUUUAAAAUAAAUUAUUGUUUUCAUUGAGUGUGUGCUUUUUCCUUGGUGCCAGGGUUACCUCGGCUCGGA,0.408
GGACCCGAGACUGAGUUUUGUCCUUGUCCUUUAGCCUUAGCAGUGGGUAUGAGGUGUGCAGGGGGCUGGGUGGCUUUCCUCAGCCCAUUACAAAGAGGGCCCCCCACCCC,0.685
AGAGGAAACAGAGCUAGUCAGAUGUGAAUUGUAUCUGUUGUAAUAAACAUGUUAAAACAAACAAAAAUUGUUAUUUUUCUUUUCCUUCGGUCAGUGCACAUUAGCAUUUG,0.562
CAUUUUUUUUUAAAAUUGAAGGUCAGCCAUGCUUUCUGUAUUAUAUUGCAUAUGAAAUUGUUUACAAAAGAAACACUAACUCAUCCUUCUCUUUAUCAGUUGAAAGUGAC,0.54

# Other studies, line by line
Compound,target,read-out,technique,tested at,quantity,value
CNCc1ccccc1-c1csc([C@H](C)Nc2nc(C)nc3cc(OC)c(OC)cc23)c1,"Muscarinic acetylcholine receptor M1 (CHRM1, Homo sapiens, UniProt P11229)",binding,radioligand binding,10 µM,inhibition,89.1%

# Some of these lines once more (block 3):
Variant,normalised enrichment score
R5L,-0.0241
V8E,1.88
G10A,0.906
K2T,2.02
